Experimental data gathered from unrelated publications.
Numbered parts are unrelated; each lists some results of a single study. “And” joins repeats or separate records; there may be more than shown.
Chain of UniProt Q13153 (whole entry, looked up): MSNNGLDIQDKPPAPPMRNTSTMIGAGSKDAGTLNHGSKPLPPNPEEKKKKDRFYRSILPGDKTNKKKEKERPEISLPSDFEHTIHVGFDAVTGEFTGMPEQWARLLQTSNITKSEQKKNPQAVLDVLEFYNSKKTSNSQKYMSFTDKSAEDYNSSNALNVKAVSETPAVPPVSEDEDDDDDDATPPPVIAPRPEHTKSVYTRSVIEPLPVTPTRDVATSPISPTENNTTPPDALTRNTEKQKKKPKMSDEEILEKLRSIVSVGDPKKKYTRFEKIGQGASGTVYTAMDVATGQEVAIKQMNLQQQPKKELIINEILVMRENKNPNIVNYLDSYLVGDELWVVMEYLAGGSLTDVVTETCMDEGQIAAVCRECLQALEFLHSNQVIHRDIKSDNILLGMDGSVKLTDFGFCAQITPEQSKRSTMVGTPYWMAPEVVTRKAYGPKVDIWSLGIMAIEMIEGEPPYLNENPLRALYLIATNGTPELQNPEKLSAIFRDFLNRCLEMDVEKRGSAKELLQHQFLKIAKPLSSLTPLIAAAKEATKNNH
Chain of UniProt Q96RR4 (whole entry, looked up): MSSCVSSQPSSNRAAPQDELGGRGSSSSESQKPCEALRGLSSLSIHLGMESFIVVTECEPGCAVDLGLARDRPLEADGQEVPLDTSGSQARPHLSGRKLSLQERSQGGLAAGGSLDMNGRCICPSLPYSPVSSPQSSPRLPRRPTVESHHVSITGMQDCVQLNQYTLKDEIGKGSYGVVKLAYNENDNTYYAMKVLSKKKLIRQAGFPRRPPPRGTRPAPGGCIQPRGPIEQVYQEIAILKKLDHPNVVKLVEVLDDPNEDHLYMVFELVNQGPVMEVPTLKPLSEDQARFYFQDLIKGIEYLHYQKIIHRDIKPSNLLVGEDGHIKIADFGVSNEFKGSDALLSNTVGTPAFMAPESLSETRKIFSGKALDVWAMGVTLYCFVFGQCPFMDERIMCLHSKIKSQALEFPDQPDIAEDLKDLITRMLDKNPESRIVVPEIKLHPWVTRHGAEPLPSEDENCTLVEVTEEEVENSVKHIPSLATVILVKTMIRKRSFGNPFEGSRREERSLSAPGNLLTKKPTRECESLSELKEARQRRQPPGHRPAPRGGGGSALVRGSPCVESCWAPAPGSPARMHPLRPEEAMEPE
Chain of UniProt O75116 (whole entry, looked up): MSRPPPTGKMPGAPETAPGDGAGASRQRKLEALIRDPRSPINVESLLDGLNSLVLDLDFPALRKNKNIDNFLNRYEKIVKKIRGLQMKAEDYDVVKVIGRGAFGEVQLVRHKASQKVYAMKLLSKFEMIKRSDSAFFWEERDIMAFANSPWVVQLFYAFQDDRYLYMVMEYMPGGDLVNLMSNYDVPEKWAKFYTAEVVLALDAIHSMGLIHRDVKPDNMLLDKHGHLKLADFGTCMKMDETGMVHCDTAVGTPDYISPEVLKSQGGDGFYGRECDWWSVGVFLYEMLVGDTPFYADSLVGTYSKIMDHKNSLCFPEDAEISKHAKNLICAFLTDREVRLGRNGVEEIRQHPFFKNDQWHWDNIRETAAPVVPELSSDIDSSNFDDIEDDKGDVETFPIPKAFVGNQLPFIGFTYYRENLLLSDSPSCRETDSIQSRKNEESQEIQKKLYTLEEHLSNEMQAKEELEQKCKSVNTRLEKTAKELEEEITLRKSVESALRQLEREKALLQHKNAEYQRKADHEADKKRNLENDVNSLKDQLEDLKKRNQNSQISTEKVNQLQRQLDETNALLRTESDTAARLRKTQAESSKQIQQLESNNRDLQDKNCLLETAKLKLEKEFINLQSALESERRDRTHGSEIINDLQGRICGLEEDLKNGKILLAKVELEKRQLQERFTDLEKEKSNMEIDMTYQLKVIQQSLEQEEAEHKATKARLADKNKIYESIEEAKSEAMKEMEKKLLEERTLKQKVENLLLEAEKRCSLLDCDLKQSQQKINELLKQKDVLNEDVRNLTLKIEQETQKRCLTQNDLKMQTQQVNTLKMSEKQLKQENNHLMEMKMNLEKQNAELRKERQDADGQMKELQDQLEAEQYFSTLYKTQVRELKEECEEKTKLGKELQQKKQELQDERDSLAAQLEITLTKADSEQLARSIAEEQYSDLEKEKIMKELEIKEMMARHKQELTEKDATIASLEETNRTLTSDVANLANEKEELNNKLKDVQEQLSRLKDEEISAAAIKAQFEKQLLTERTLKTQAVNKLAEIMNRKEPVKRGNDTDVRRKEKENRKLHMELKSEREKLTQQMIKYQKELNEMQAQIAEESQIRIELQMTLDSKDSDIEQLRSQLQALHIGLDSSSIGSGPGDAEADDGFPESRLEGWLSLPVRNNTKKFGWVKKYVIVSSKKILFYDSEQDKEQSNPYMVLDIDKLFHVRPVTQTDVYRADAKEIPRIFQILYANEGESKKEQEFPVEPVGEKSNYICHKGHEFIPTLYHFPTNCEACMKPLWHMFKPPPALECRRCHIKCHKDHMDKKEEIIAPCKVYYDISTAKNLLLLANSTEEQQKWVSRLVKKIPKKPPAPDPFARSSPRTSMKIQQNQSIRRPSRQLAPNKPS
Chain of UniProt P07948 (whole entry, looked up): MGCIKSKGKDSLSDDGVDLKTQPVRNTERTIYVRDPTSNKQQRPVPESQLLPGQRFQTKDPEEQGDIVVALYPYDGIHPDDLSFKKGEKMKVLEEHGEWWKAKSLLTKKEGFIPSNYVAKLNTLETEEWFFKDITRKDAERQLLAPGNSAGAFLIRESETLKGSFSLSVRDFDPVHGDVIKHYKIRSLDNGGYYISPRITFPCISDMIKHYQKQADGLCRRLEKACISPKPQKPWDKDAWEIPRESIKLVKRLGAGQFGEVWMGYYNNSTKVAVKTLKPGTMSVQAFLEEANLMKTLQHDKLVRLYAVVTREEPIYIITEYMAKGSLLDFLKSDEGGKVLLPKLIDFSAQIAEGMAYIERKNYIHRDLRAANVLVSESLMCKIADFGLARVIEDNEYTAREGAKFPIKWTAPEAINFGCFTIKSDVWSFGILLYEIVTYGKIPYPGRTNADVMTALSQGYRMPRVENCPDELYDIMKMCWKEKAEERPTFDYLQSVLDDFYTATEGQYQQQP
Chain of UniProt O43293 (whole entry, looked up): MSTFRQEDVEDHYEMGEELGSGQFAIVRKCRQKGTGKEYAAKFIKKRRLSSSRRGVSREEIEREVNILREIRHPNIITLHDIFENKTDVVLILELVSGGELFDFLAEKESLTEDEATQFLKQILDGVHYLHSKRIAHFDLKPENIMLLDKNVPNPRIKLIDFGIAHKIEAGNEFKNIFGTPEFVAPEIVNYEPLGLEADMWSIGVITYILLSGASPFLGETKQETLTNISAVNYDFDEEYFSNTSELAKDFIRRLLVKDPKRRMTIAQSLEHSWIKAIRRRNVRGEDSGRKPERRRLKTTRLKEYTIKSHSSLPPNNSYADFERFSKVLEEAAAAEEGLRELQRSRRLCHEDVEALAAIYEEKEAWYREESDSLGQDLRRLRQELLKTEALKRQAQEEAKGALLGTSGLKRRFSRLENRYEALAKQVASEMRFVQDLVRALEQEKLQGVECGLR
Chain of UniProt P16591 (whole entry, looked up): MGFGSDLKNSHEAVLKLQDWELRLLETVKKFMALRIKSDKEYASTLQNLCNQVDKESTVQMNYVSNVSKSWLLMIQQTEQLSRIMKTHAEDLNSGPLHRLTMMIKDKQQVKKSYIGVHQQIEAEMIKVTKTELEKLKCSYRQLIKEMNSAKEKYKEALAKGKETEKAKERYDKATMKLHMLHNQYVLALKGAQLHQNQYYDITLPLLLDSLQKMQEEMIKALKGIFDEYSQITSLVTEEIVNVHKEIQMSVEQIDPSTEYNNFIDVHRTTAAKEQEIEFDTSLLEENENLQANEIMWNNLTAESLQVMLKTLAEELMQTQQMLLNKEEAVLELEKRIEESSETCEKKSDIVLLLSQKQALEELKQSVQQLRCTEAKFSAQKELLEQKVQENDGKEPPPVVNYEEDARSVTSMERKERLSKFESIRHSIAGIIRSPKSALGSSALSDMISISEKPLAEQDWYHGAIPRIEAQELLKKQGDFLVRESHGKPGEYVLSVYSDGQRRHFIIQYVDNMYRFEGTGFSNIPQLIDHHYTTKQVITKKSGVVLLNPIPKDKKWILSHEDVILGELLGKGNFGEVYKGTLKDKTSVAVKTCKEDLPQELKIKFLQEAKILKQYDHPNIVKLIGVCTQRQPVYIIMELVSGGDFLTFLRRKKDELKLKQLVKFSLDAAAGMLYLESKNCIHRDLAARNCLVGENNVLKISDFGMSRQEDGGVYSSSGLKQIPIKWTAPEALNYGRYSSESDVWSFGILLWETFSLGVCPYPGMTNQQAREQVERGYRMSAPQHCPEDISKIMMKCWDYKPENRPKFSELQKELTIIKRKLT
Chain of UniProt P78356 (whole entry, looked up): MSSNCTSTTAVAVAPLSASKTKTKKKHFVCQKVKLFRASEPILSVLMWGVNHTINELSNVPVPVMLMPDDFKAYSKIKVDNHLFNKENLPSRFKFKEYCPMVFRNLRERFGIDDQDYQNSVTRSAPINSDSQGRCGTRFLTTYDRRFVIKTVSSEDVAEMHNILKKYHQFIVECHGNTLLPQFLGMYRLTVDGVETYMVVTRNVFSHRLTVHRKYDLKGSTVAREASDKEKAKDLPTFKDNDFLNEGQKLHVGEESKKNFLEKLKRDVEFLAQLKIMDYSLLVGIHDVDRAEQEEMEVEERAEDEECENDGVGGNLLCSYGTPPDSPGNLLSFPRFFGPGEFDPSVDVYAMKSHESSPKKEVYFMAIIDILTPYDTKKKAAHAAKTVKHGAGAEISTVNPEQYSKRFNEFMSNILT

Sample 1 — method: Incucyte 3D growth; tested at: 30 µM; reading: higher = more growth
Structure (SMILES): CC(C)(C(=O)O)[C@H](NC(=O)Cc1cccc(I)c1)c1ccc2oc(=O)[nH]c2c1
For A375; 462.52 h: spheroid area read 1.54e+08 a.u. and 1.79e+08 a.u. and 1.42e+08 a.u. and 1.62e+08 a.u.
It gave 4.47e+07 a.u. and 5.13e+07 a.u. and 6.96e+07 a.u. and 5.62e+07 a.u. and 5.59e+07 a.u. and 6.25e+07 a.u. for spheroid area (A375; 84 h).
The spheroid area was 3.73e+06 a.u. and 2.92e+06 a.u. and 4.2e+06 a.u. and 3.89e+06 a.u. and 3.53e+06 a.u. and 4.24e+06 a.u. (NCI-H358; 42 h).
The spheroid area was 3.3e+07 a.u. and 3.03e+07 a.u. and 2.65e+07 a.u. and 2.45e+07 a.u. and 2.6e+07 a.u. and 2.22e+07 a.u. (IPC-298; 96 h).
The spheroid area was 4.64e+07 a.u. and 4.74e+07 a.u. and 4.71e+07 a.u. and 7.05e+07 a.u. and 4.3e+07 a.u. and 2.24e+07 a.u. (KP-4; 234 h).
It gave 3.29e+07 a.u. and 4.3e+07 a.u. and 3e+07 a.u. and 2.6e+07 a.u. and 2.73e+07 a.u. and 3.83e+07 a.u. for spheroid area (IPC-298; 252 h).

Sample 2 — cell line: HaCaT; tested at: 100 µM; time: 18 h
For CCCCCCCCN=c1ccn(CCCCCCCCCCn2ccc(=NCCCCCCCC)cc2)cc1, the viability was 19.8%.
CC(C)C(=O)Nc1ccc([N+](=O)[O-])c(C(F)(F)F)c1 has a viability of 75.1%.
N=C(N)c1ccc(/N=N/Nc2ccc(C(=N)N)cc2)cc1 gave a viability of 120%.
With O=c1[nH]cc(F)c(=O)[nH]1 the viability was 89.7%.
With N#Cc1cc(-c2n[nH]c(-c3ccncc3)n2)ccn1 the viability was 55.5%.
The viability of Cc1cn[nH]c1 is reported as 94.8%.

Sample 3 — host: human; medium: microsomes or S9; tested at: 2 µM; time: 0.5 h
Clc1ccc(-c2csc3ncnc(N4CCCCC4c4ncc[nH]4)c23)cc1 (stereo not drawn) gave a remaining compound of 2.07%.
For Cc1noc(C)c1CCNc1ncnc2onc(-c3cccc(Cl)c3)c12, the remaining compound was 99.4%.
Nc1cc(O)nc2nnc(SCc3nnnn3-c3ccc(Cl)c(Cl)c3)n12 has a remaining compound of 84.7%.
For CC(CCc1ccccc1)NC(=O)c1noc(-c2ccc[nH]c2=O)n1 (stereo not drawn), the remaining compound was > 99%.
NS(=O)(=O)c1ccc(CNc2nc(Cl)nc3[nH]cnc23)cc1 gave a remaining compound of 90.7%.

Sample 4 — observed: cell-free assay; method: competition with immobilised ligand; tested at: 1 µM
SMILES: COc1ccc2c(O[C@@H]3C[C@H]4C(=O)N[C@]5(C(=O)O)CC5/C=C\CCCCC[C@H](NC(=O)OC5CCCC5)C(=O)N4C3)cc(-c3csc(NC(=O)C(C)C)n3)nc2c1C (stereo partly drawn)
The remaining binding was 94% (Tyrosine-protein kinase Lyn (LYN, Homo sapiens, UniProt P07948)).
It gave 100% for remaining binding (Calcium/calmodulin-dependent protein kinase kinase 2 (CAMKK2, Homo sapiens, UniProt Q96RR4)).
It gave 100% for remaining binding (Serine/threonine-protein kinase PAK 1 (PAK1, Homo sapiens, UniProt Q13153)).
For Phosphatidylinositol 5-phosphate 4-kinase type-2 beta (PIP4K2B, Homo sapiens, UniProt P78356): remaining binding read 100%.
For Dual specificity mitogen-activated protein kinase kinase 6 (MAP2K6, Homo sapiens, UniProt P52564): remaining binding read 100%.
It gave 100% for remaining binding (Tyrosine-protein kinase Fer (FER, Homo sapiens, UniProt P16591)).
It gave 100% for remaining binding (ALK tyrosine kinase receptor (ALK, Homo sapiens, UniProt Q9UM73, C1156Y)).
It gave 95% for remaining binding (Rho-associated protein kinase 2 (ROCK2, Homo sapiens, UniProt O75116)).
It gave 100% for remaining binding (Death-associated protein kinase 3 (DAPK3, Homo sapiens, UniProt O43293)).
It gave 87% for remaining binding (Receptor-type tyrosine-protein kinase FLT3 (FLT3, Homo sapiens, UniProt P36888, D835Y)).

Excerpt of the above (sample 1):
It gave 4.47e+07 a.u. and 5.13e+07 a.u. and 6.96e+07 a.u. and 5.62e+07 a.u. and 5.59e+07 a.u. and 6.25e+07 a.u. for spheroid area (A375; 84 h).
The spheroid area was 3.73e+06 a.u. and 2.92e+06 a.u. and 4.2e+06 a.u. and 3.89e+06 a.u. and 3.53e+06 a.u. and 4.24e+06 a.u. (NCI-H358; 42 h).
The spheroid area was 3.3e+07 a.u. and 3.03e+07 a.u. and 2.65e+07 a.u. and 2.45e+07 a.u. and 2.6e+07 a.u. and 2.22e+07 a.u. (IPC-298; 96 h).
